Measurements of several laboratories.
Each line is one published result; not all experiments were run side by side. Several values in a cell are separate wells, animals, samples, runs or records.
Target: Dual specificity mitogen-activated protein kinase kinase 1 (MAP2K1, Homo sapiens, UniProt Q02750)
Chain of UniProt Q02750 (whole entry, looked up): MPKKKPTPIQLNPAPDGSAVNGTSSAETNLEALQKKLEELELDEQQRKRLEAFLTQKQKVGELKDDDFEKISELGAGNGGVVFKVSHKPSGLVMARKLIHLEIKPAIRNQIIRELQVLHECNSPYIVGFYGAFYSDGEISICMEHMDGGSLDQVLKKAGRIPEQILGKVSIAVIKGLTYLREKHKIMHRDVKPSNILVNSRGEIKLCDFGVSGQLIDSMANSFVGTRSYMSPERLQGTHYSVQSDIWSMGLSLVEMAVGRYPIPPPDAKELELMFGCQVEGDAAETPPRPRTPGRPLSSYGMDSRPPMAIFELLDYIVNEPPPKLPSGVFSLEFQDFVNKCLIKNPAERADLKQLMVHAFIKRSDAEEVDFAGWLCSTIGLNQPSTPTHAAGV

Compound | assay | setting | scale | endpoint | value
COc1ccc(C(=O)/C=C/c2ccccc2-c2c[nH]c3ccc(C#N)cc23)c(O)c1 | enzyme activity, inhibitor | 20 µM | – | inhibition | 12%
COc1ccc(NC(=O)Nc2ccc3c(c2)C(=O)N(C(C)CO)CC(C)C(CN(C)Cc2ccc4c(c2)OCO4)O3)cc1 (stereo not drawn) | kinase activity, KinaseProfiler | 0.03 µM, species human | baseline: control | remaining activity | 106%
C[C@H]1CN(C(=O)c2cn(-c3ccnc(N)n3)c3cc(C#CC4(O)CCCCC4)ccc23)CCN1 | enzyme activity, inhibitor, FRET | 1 µM | – | inhibition | 0%
Cc1ccc(C)c(-c2ccc3nc(NC(=O)C4CCCCC4)nn3c2)c1 | enzyme activity, Dundee kinase panel | 10 µM | – | remaining activity | 59%
C=CC(=O)N1CCc2ccc(-n3c(=O)ccc4cnc5ccc(-c6cnn(C)c6)cc5c43)cc21 | KINOMEscan | 1 µM | baseline: DMSO control | remaining binding | 99%
CC(C)=CC1OC(C)(C)C2C=C3C(=O)C(Cl)=CC(O)C3C3C(O)C4OC4C(=O)C132 (stereo not drawn) | cell-free assay, competition with immobilised ligand | 10 µM | – | remaining binding | 63%
Nc1nc(Nc2ccccc2)sc1C(=O)c1ccccc1 | enzyme activity, inhibitor | 10 µM | – | remaining activity | 0%
NC(=O)C[C@H]1CCc2sc3ncnc(O[C@H]4CC[C@H](N5CCOCC5)CC4)c3c21 | enzyme activity, inhibitor | 10 µM | – | inhibition | 7%
CNC(=O)C[C@H](Cc1ccc(C#N)cc1)NC(=O)c1cc(-c2ccc(CN[C@H](C)c3ccc(C)cc3)o2)ccc1Cl | enzyme activity, inhibitor | 1 µM | – | activity vs control | 109%
CCn1cc(C(=O)O)c(=O)c2c(N)c(F)c(NC3CCCCC3)cc21 | kinase activity | 0.1 µM, together with: ATP at Km | – | inhibition | 2.6%
CCN1CCN(Cc2ccc(C(=O)Nc3ccc(C)c(NCc4cnc5[nH]ccc5c4OC)c3)cc2C(F)(F)F)CC1 | binding, competition with immobilised ligand | 1 µM | – | remaining binding | 94%
COCC12C(=O)NC3C4(C(OC)CC1O)C1CC5(O)C(OC)C(O)C(OC(C)=O)(C1C5OC(=O)c1ccccc1)C3(O)C(OC)C24 (stereo not drawn) | kinase activity, inhibitor, ProQinase kinase profiling | 25 µM | baseline: control | remaining activity | 130% and 106%
COc1c(OCCCN2CCOCC2)ccc2c1N=C(NC(=O)c1cnc(N)nc1)N1CCN=C21 | kinase activity, inhibitor | 1 µM | baseline: untreated control | remaining activity | 106%
CCOC(=O)c1ccc2n[nH]cc2c1 | SPR | 200 µM, 25 °C | – | binding response | 0.9 RU
Cc1cccc(-c2ccc3nc(NC(=O)C4CCCCC4)nn3c2)c1 | enzyme activity, Dundee kinase panel | 10 µM | – | remaining activity | 74%
CN1CCN(Cc2ccc(NC(=O)c3cccc(C#Cc4cnc(N)c5ncccc45)c3)cc2C(F)(F)F)CC1 | cell-free assay, competition with immobilised ligand | 0.5 µM | – | remaining binding | 69%
c1ccc2c(Nc3cc(C4CCC4)[nH]n3)nc(Nc3ccc4nc[nH]c4c3)nc2c1 | enzyme activity, inhibitor | 0.25 µM | – | remaining activity | 35%
Cc1cccc(O[C@H]2CCC[C@@H](C(C)CNCc3ccncc3)C2)c1 (relative stereo) | enzyme activity, inhibitor | 10 µM | – | inhibition | -9%
CNC1C[S+]2CC[S+]3CC[S+](C1)[Ru-4]321([N]=C=S)[n]2c3ccc(OC)cc3c3c4c(c5cc(F)c[n+]1c5c32)C(=O)NC4=O (stereo not drawn) | KinomeScan | 0.1 µM | baseline: untreated | remaining binding | 100%
Nc1ncc(-c2cc(-c3cnn(CC(F)(F)F)c3)ncc2F)nc1C(=O)NC1CNCC(F)C1 (stereo not drawn) | enzyme activity | 1 µM | baseline: DMSO control | remaining activity | 99.9%
Cc1ccc(-c2c(/C=C(\C#N)C(=O)NC(C)C)n(CCCO)c3ncnc(N)c23)cc1 | cell-free assay, competition with immobilised ligand | 1 µM | – | remaining binding | 68%
Cc1cnc2nc1Nc1cccc(c1)COC/C=C/COCc1cc(ccc1OCCN1CCOCC1)N2 | binding, competition with immobilised ligand | 0.1 µM | – | remaining binding | 82%
C=CC(=O)Nc1cccc(-c2cnc3[nH]cc(C(=O)NC(C)(C)C)c3n2)c1 | kinase activity | 0.1 µM | – | inhibition | 5% and 6%
O=c1c(-c2ccc(Cl)c(CN3CCOCC3)c2)coc2cc(O)ccc12 | enzyme activity, inhibitor | 1 µM | – | remaining activity | 85%

For quick reference, copied from above:
Compound | assay | setting | scale | endpoint | value
CCOC(=O)c1ccc2n[nH]cc2c1 | SPR | 200 µM, 25 °C | – | binding response | 0.9 RU
Cc1cccc(-c2ccc3nc(NC(=O)C4CCCCC4)nn3c2)c1 | enzyme activity, Dundee kinase panel | 10 µM | – | remaining activity | 74%
